Results from different studies.
Compare with care: the assays were run in different laboratories. Values joined by “and” are separate records of one study, mostly repeats; a detail may differ.
Cell line: SK-OV-3
Read-out: cell growth or viability

| SMILES | method | time | IC50 |
| --- | --- | --- | --- |
| C=CC[P](c1ccccc1)(c1ccccc1)[Pt]([S]c1nc2ccccc2s1)([S]c1nc2ccccc2s1)[P](CC=C)(c1ccccc1)c1ccccc1 | MTT |  | 22.1 µM |
| O=C(Cc1ccc2ccccc2c1)N[C@H](Cc1ccc(O)cc1)C(=O)N[C@H](Cc1ccccc1)C(=O)N[C@H](Cc1ccccc1)C(=O)N[C@H](Cc1ccc(OP(=O)(O)O)cc1)C(=O)O | MTT |  | 372 µg/mL |
| C[C@H]1C(OCCCC[P+](c2ccccc2)(c2ccccc2)c2ccccc2)O[C@@H]2O[C@@]3(C)CCC4[C@H](C)CCC1[C@]42OO3 (some centres unmarked) | MTT | 72 h | 0.192 µM |
| COC(=O)CC[C@@H](NC(=O)[C@@H](Cc1ccc(OP(=O)(O)O)cc1)NC(=O)[C@@H](Cc1ccccc1)NC(=O)[C@@H](Cc1ccccc1)NC(=O)Cc1ccc2ccccc2c1)C(=O)OC |  |  | > 200 µM |
| C[C@H]1C(OCCCCCC[P+](c2ccccc2)(c2ccccc2)c2ccccc2)O[C@@H]2O[C@@]3(C)CCC4[C@H](C)CCC1[C@]42OO3 (some centres unmarked) | MTT | 72 h | 0.105 µM |
| C=CC[P](c1ccccc1)(c1ccccc1)[Pt]([S]c1ccc(C(F)(F)F)cn1)([S]c1ccc(C(F)(F)F)cn1)[P](CC=C)(c1ccccc1)c1ccccc1 | MTT |  | 12.4 µM and 17.5 µM |
| O=C(Cc1ccc2ccccc2c1)N[C@H](Cc1ccccc1)C(=O)N[C@H](Cc1ccccc1)C(=O)N[C@H](Cc1ccc(OP(=O)(O)O)cc1)C(=O)N[C@H](Cc1ccc(OP(=O)(O)O)cc1)C(=O)O | MTT |  | > 483 µg/mL |
| N.N.O=C([O][Pt]([OH])([Cl])[Cl])c1ccc(P(c2ccccc2)c2ccccc2)cc1.[Cl][Au] | resazurin | 72 h | 14.3 µM |
| C[C@H]1C(OCCCCCCCCCCCC[P+](c2ccccc2)(c2ccccc2)c2ccccc2)O[C@@H]2O[C@@]3(C)CCC4[C@H](C)CCC1[C@]42OO3 (some centres unmarked) | MTT | 72 h | 0.0773 µM |
| O=C1[O][Pt]2([OH])([OH])([NH]C3CCCCC3[NH]2)[O]C1=O (centres unmarked) | resazurin | 72 h | > 100 µM |
| O=C(Cc1ccc2ccccc2c1)N[C@H](Cc1ccccc1)C(=O)N[C@H](Cc1ccc(O)cc1)C(=O)N[C@H](Cc1ccccc1)C(=O)N[C@H](Cc1ccc(O)cc1)C(=O)O | MTT |  | > 500 µg/mL |
| C=CC[P](c1ccccc1)(c1ccccc1)[Pt]([Cl])([Cl])[P](CC=C)(c1ccccc1)c1ccccc1 | MTT |  | 34.5 µM |
| C[C@@H]1CCC2[C@@H](C)[C@@H](OCCC[P+](c3ccccc3)(c3ccccc3)c3ccccc3)O[C@@H]3O[C@@]4(C)CCC1[C@@]23OO4 (some centres unmarked) | MTT | 72 h | 0.15 µM |
| O=C(Cc1ccc2ccccc2c1)N[C@H](Cc1ccc(O)cc1)C(=O)N[C@H](Cc1ccccc1)C(=O)N[C@H](Cc1ccccc1)C(=O)N[C@H](Cc1ccc(O)cc1)C(=O)O | MTT |  | > 500 µg/mL |

Excerpt of the above:
| SMILES | method | time | IC50 |
| --- | --- | --- | --- |
| O=C(Cc1ccc2ccccc2c1)N[C@H](Cc1ccccc1)C(=O)N[C@H](Cc1ccccc1)C(=O)N[C@H](Cc1ccc(OP(=O)(O)O)cc1)C(=O)N[C@H](Cc1ccc(OP(=O)(O)O)cc1)C(=O)O | MTT |  | > 483 µg/mL |
